Assay results collected from several papers.
Numbers after ± are the reported error.

SMILES | cell line | test | setting | IC50 [µM]
CCN(CC)c1ccc2c(c1)Oc1cc(N(CC)CC)ccc1C21c2ccccc2C(=O)N1N=Cc1c[c-]c(-c2ccccn2)cc1.Cc1c(C)c(-c2ccc(-c3ccccc3)cc2)[c-](C)c1C.[Cl-].[Ir+3] | HeLa human cancer cells | cell growth, MTT | 24 h | 28.2 ± 3.8
CC(C)c1cccc(C(C)C)c1[N+]#[C][Pd-2]([Cl])([Cl])[C]#[N+]c1c(C(C)C)cccc1C(C)C | MRC5 | cell growth or viability |  | > 100
[Cl][Cu-][c]1n(-c2c(C(c3ccccc3)c3ccccc3)cc(C(c3ccccc3)c3ccccc3)cc2C(c2ccccc2)c2ccccc2)c2c([n+]1-c1c(C(c3ccccc3)c3ccccc3)cc(C(c3ccccc3)c3ccccc3)cc1C(c1ccccc1)c1ccccc1)-c1cccc3cccc-2c13 | NTERA2 | cell growth or viability, MTT | 72 h | > 50
COc1ccc2cc3[n+](cc2c1OCc1cn(Cc2cccc(Br)c2)nn1)CCc1cc2c(cc1-3)OCO2 | SMMC-7721 | cell growth or viability, MTT |  | 33.5
CCCCCCCCCCCCCCn1c(-c2cccnc2)nc(-c2ccc(C)cc2)c1-c1ccc(C)cc1 | BT-474 | cell growth or viability, SRB | 24 h | > 100
N#Cc1cccc(-c2ccc(=O)n(Cc3cccc(-c4ncc(OCC5CCN(CC(=O)N6CCN(c7ccc8c(c7)C(=O)N(C7CCC(=O)NC7=O)C8=O)CC6)CC5)cn4)c3)n2)c1 (stereo not drawn) | EBC-1 | cell growth or viability, CCK-8 | 72 h | 0.00211
O=C(CCCCCCNC(=O)c1cc(C(=O)c2ccccc2)cn1Cc1ccc(F)cc1)NO | human Epithelial cell | cell growth or viability |  | > 50
NC(CSSCC(N)C(=O)N1CCn2cc(-c3ccccc3)nc2C1CC1CCCCC1)C(=O)N1CCn2cc(-c3ccccc3)nc2C1CC1CCCCC1 (stereo not drawn) | MP41 GNA11 Q209L | cell growth | 72 h | 11.9 ± 1
Cc1ccc2c(c1)C(=O)[C@](C)([N+](=O)[O-])[C@@H](CC(=O)NC13CC4CC(CC(C4)C1)C3)O2 | PC-3M | cell growth or viability, SRB | 96 h | 19.2
CC[C@@]12CCc3c(c4ccccc4n3C)CCN(C[C@H](O)[C@H]1O)C2 | BV-2 | cell growth or viability, MTT |  | 56.7
CC[C@H](C)[C@H](NC(=O)[C@H](Cc1ccc(OP(=O)(O)O)cc1)NC(=O)[C@H](CC(=O)O)NC(=O)[C@@H](N)CCCCN)C(=O)N[C@H](C(=O)N[C@@H](CC(C)C)C(=O)N[C@@H](CCCCNC(=O)CNC(=O)[C@H](CCCCN)NC(=O)[C@H](CCCNC(=N)N)NC(=O)[C@H](Cc1ccccc1)NC(=O)[C@H](CCCNC(=N)N)NC(=O)[C@H](CCCNC(=N)N)NC(=O)[C@H](CCCNC(=N)N)NC(=O)[C@H](CO)NC(=O)[C@H](Cc1ccc(O)cc1)NC(=O)[C@H](CO)NC(=O)[C@H](CC(C)C)NC(=O)[C@H](CCCNC(=N)N)NC(=O)[C@@H](N)CCCNC(=N)N)C(N)=O)C(C)C | HPAEC | ERK1/2 phosphorylation, inhibitor, Western blot | 0.5 h pre-incubation, serum-free medium, with: 1 ng/mL VEGF | 16.1
COc1cc(O)cc2c1-c1ccc(O)c(OC)c1CC2 | BV-2 | NO release, inhibitor, Griess | LPS-stimulated | 6.69
COc1c(O)cc2oc3cc(O)c(CCC(C)C)c(O)c3c(=O)c2c1CCC(C)C | SMMC-7721 | cell growth or viability | 48 h | 15.7
COc1ccc2nc(Cl)c(-c3nc4cc(Br)ccc4[nH]3)cc2c1 | L02 | cell growth or viability, MTT | 48 h | > 100
CN(C)c1ccc(/C=C2\Oc3cc(O)ccc3C2=O)cc1 | PC-9 scrambled control | viability, MTT | 72 h | 14.1
CC(=O)Oc1ccc(/C=C/C(=O)Nc2nc(=O)n([C@@H]3O[C@H](C)[C@@H](OC(C)=O)[C@H]3OC(C)=O)cc2F)cc1OC(C)=O | BXPC-3 | cell growth or viability, MTT | 72 h | 31.6
CCCC(CCC)C(=O)[O][Pt]1([O]C(=O)C(CCC)CCC)[O]C(=O)C(=O)[O]1.NC1CCCCC1N | BXPC-3 | cell growth or viability |  | 14.4
CCN(CC)CCO/N=C1/C=C2CCC3C(CC[C@]4(C)/C(=C/c5ccccn5)CCC34)[C@@]2(C)CC1 (stereo partly drawn) | human Fibroblast | cell growth or viability, resazurin | 72 h | 14.7
CCCCCCCCC=CCCCCCCCCn1c(-c2cccnc2)nc(-c2ccc(C)cc2)c1-c1ccc(C)cc1 | BT-474 | cell growth or viability, SRB | 48 h | > 100
N[C@@H](CNC(=O)c1ccc2[nH]c(C(=O)c3ccc(O)cc3)nc2c1)C(=O)O | NCI-H441 | cell growth or viability, ATP luminescence | 72 h | > 300
C=C1C(=O)O[C@H]2CC3=C[C@@H](C/C(C)=C/[C@@H](OC(=O)/C=C/c4ccccc4)[C@H]12)OC3=O | MeWo | cell growth or viability, MTT | 24 h | 9.9
CC(C)C[C@H](NC(=O)[C@@H](Cc1c[nH]c2ccccc12)NC(=O)[C@H](Cc1c[nH]cn1)NC(=O)[C@H](CO)NC(=O)[C@H](Cc1c[nH]c2ccccc12)NC(=O)[C@H](Cc1c[nH]cn1)NC(=O)[C@@H]1CCC(=O)N1)C(=O)N[C@@H](CCCNC(=N)N)C(=O)N1CCC[C@H]1C(=O)NCC(N)=O | WPE-1-NB26-3 | cell growth, inhibitor, sulforhodamine B staining | four days | 0.0004 ± 0.0001
CC/C(=C(\c1ccc(O)cc1)c1ccc(OCCN(C)CCOCCOCCOCCOCCOC)cc1)c1ccccc1 | MCF7 (ER-positive) | cell growth | 96 h | 0.37
COC(=O)C1=CO[C@@H](C)[C@@H]2Cn3ccc4c5ccccc5nc-4c3C[C@H]12 | NFF | cell growth or viability |  | > 200
CO[C@@H]1[C@@H](O[C@@H]2O[C@H](C)[C@@H](O[C@H]3C[C@@](C)(O)[C@@H](OC(=O)CN4CCOCC4)[C@H](C)O3)[C@H](N(C)C)[C@H]2O)[C@@H](CC=O)C[C@@H](C)[C@@H](O[C@H]2CC[C@H](N(C)C)[C@@H](C)O2)/C=C/C=C/C[C@@H](C)OC(=O)C[C@H]1O | GES1 | cell growth or viability, CCK-8 | 72 h | 9.56
CC(C)c1ccc(/C=C/C(=O)NC(=O)N[C@@H]2O[C@H](CO)[C@@H](O)[C@H](O)[C@H]2O)cc1 | human T-lymphocyte | cell growth or viability | 72 h | 22

SMILES | cell line | test | setting | IC50 [µM]
Cc1ccc(C(=O)C2Sc3nnc(-n4nc(C)cc4C)n3NC2c2ccc(Cl)cc2)cc1 (racemic) | LN-229 | cell growth or viability, imaging | 72 h | > 100
C(=C\c1cnc2[nH]c3ccc(-c4ccc(OCc5nnn[nH]5)cc4)cc3c2c1)/c1ccccc1 | Ba/F3 NPM-ALK | cell proliferation, [3H]-thymidine incorporation |  | 3.5
N#Cc1cccc(-c2ccc(=O)n(Cc3cccc(-c4ncc(OCC5CCN(CCCCC(=O)Nc6ccc7c(c6)C(=O)N(C6CCC(=O)NC6=O)C7=O)CC5)cn4)c3)n2)c1 (stereo not drawn) | EBC-1 | cell growth or viability, CCK-8 | 72 h | 0.00398
CCCCc1ccc(C(=O)O[C@H]2[C@H](C)O[C@@H](O[C@H]3[C@H](N(C)C)[C@@H](O)[C@H](O[C@H]4[C@@H](CC=O)C[C@@H](C)[C@@H](O[C@H]5CC[C@H](N(C)C)[C@@H](C)O5)/C=C/C=C/C[C@@H](C)OC(=O)C[C@@H](O)[C@@H]4OC)O[C@@H]3C)C[C@@]2(C)O)cc1 | GES1 | cell growth or viability, CCK-8 | 72 h | 2.75
CC1=C2[O][Ru-]([Cl])[O+]=C2C=CN1CCCN1C=CC2=[O+][Ru-]([Cl])[O]C2=C1C.Cc1ccc(C(C)C)cc1.Cc1ccc(C(C)C)cc1 | 5637-oxo oxoplatin-resistant | crystal violet | 96 h | > 20
COc1c(O)cc2oc3c(Br)c(O)c(CCC(C)C)c(O)c3c(=O)c2c1CCC(C)C | SMMC-7721 | cell growth or viability | 48 h | 10.8
CN1CCN(c2ccc(-c3ccc4[nH]c5ncc(/C=C/c6ccccc6)cc5c4c3)cc2)CC1 | Ba/F3 NPM-ALK | cell proliferation, [3H]-thymidine incorporation |  | 1.1
COc1ccc2cc3[n+](cc2c1OCc1cn(Cc2ccc([N+](=O)[O-])cc2)nn1)CCc1cc2c(cc1-3)OCO2 | SMMC-7721 | cell growth or viability, MTT |  | 63.8
COc1ccc2nc(Cl)c(-c3nc4cc(F)ccc4[nH]3)cc2c1 | BEL-7404 | cell growth or viability, MTT | 48 h | > 100
CCCCCCCCCCCCCCCC(=O)O[C@H]1[C@H](C)O[C@@H](O[C@H]2[C@H](N(C)C)[C@@H](O)[C@H](O[C@H]3[C@@H](CC=O)C[C@@H](C)[C@@H](O[C@H]4CC[C@H](N(C)C)[C@@H](C)O4)/C=C/C=C/C[C@@H](C)OC(=O)C[C@@H](O)[C@@H]3OC)O[C@@H]2C)C[C@@]1(C)O | GES1 | cell growth or viability, CCK-8 | 72 h | 10.8
COC(=O)[C@@H](Cc1cn(Cc2ccc(Cl)cc2)nn1)NC(=O)OCC1c2ccccc2-c2ccccc21 | BXPC-3 | cell growth or viability, MTS | 72 h | 1.35
CC(=O)N[C@H](CCCNC(=N)N)C(=O)N[C@@H](CC(=O)N[C@H](Cc1ccccc1)C(N)=O)c1ccc2ccccc2c1 | BT-474 | cell growth or viability, ATP luminescence | 72 h | 3.65
CC(C)c1cccc(C(C)C)c1[N+]#[C][Pt-2]([Cl])([Cl])[C]#[N+]c1c(C(C)C)cccc1C(C)C | MRC5 | cell growth or viability |  | > 100
C=C(F)C(=O)Nc1cnn2ccc(-c3ccc(C4CCCCC4)cc3)nc12 | NCI-H2052 (NF2 mutant) | cell growth, inhibitor | 120 h | 0.229
CC(=O)OC[C@H]1O[C@@H](NC(=O)[C@@H](C)Cc2ccc(C(C)C)cc2)[C@H](OC(C)=O)[C@@H](OC(C)=O)[C@@H]1OC(C)=O | human T-lymphocyte | cell growth or viability | 72 h | 110
CC(=O)NCCCN(C)CCCNc1cccc2c1C(=O)c1cccc(NCCCN(C)CCCNC(C)=O)c1C2=O | mouse bone marrow cells | cell proliferation, CCK-8 | 48 h | 6
COCCNc1nc(-c2nccn2C)nc2sc(-c3cccc(OC)c3Cl)c(-c3ccccc3)c12 | MIA PaCa-2 (KRAS G12C) | Western blot, measured: phospho-MEK, ERK1/2 and Akt | 6 h, with: EGF 15 min | 1 to 3
Clc1nc2ccccc2cc1-c1nc2ccccc2[nH]1 | L02 | cell growth or viability, MTT | 48 h | > 100
CC(=O)OC[C@H]1O[C@@H](NC(=O)NC(=O)/C=C/c2ccc(C(C)C)cc2)[C@H](OC(C)=O)[C@@H](OC(C)=O)[C@@H]1OC(C)=O | human T-lymphocyte | cell growth or viability | 72 h | 16
Clc1cc2nc(-c3cc4cc5c(cc4nc3Cl)OCO5)[nH]c2cc1Cl | BEL-7404 | cell growth or viability, MTT | 48 h | > 100
Cc1cc(C)c([N+]#[C][Pt-]([Cl])([Cl])=[C](Nc2cccc(CN[C](Nc3c(C(C)C)cccc3C(C)C)=[Au][Cl])c2)Nc2c(C)cc(C)cc2C)c(C)c1 | MRC5 | cell growth or viability |  | > 100
Clc1ccc2[nH]c(-c3cc4ccccc4nc3Cl)nc2c1 | BEL-7404 | cell growth or viability, MTT | 48 h | 22.2
C=CC(=O)Nc1ccc(F)c(-c2ncnc3[nH]cc(C(=O)OCC)c23)c1 | mouse naive CD4 T cells | IL-2 production | with: TCR stimulation | > 1.1
C1=[N+]2CCCC[N+]3=Cc4ccc5[n]4[Au-]23[n]2c1ccc2-c1nc2ccccc2nc1-5.F[P-](F)(F)(F)(F)F | CNS cancer cell lines |  | NCI60 panel mean | 10
Cc1ccc2nc(Cl)c(-c3nc4cc(Cl)ccc4[nH]3)cc2c1 | BEL-7404 | cell growth or viability, MTT | 48 h | > 100

Excerpt of the above:
SMILES | cell line | test | setting | IC50 [µM]
CCCCCCCCCCCCCCn1c(-c2cccnc2)nc(-c2ccc(C)cc2)c1-c1ccc(C)cc1 | BT-474 | cell growth or viability, SRB | 24 h | > 100
N#Cc1cccc(-c2ccc(=O)n(Cc3cccc(-c4ncc(OCC5CCN(CC(=O)N6CCN(c7ccc8c(c7)C(=O)N(C7CCC(=O)NC7=O)C8=O)CC6)CC5)cn4)c3)n2)c1 (stereo not drawn) | EBC-1 | cell growth or viability, CCK-8 | 72 h | 0.00211
O=C(CCCCCCNC(=O)c1cc(C(=O)c2ccccc2)cn1Cc1ccc(F)cc1)NO | human Epithelial cell | cell growth or viability |  | > 50
